Results collected from several papers.
Compare with care: the assays were run in different laboratories. Values joined by “and” are separate records of one study, mostly repeats; a detail may differ. ± gives the spread as reported.

SMILES = Cc1ccc(Sc2ccccc2N2CCNCC2)c(C)c1; assay = refers to: metrorrhagia; test system = healthy adult women; setting = oral, 10 mg daily, 12 days; quantity = participants with TEAE; result = 16.7%
SMILES = Cc1ccc([C@@H]2O[C@H](CO)[C@@H](O)[C@H](O)[C@H]2O)cc1Cc1ccc(-c2ccc(F)cc2)s1; test system = Japanese type 2 diabetes patients; setting = 400 mg, day 5, 24 h urine collection; scale = baseline: baseline; quantity = urinary chloride excretion change; result = -18 mEq
SMILES = COc1ccc2nc(-c3ccccn3)c(N(C)c3ccc(F)cc3)n2c1; test system = male CD-1 mouse, fasted, plasma; setting = oral, 50 mg/kg, with: 1-aminobenzotriazole 50 mg/kg; quantity = MRT(0-last); result = 1.09 h and 1.28 h
SMILES = N#Cc1ccc2c(c1)[C@H]1CCCN(C(=O)c3ccc4[nH]cnc4c3)[C@H]1C2; test system = human males; setting = 360 mg, day 15; quantity = total testosterone level; result = 14.7 nmol/L
SMILES = O=c1oc2c(O)c(O)cc3c(=O)oc4c(O)c(O)cc1c4c23; test system = broiler chickens, serum; setting = oral, in feed, 2000 mg/kg feed, chestnut tannin diet; quantity = detection in serum; result = not detected
SMILES = C[C@@H]1CCO[C@H]2Cn3cc(C(=O)NCc4ccc(F)cc4F)c(=O)c(O)c3C(=O)N12; test system = Tat- transgenic mouse, hippocampus; setting = subcutaneous osmotic pump, dose not given, 5 d; quantity = drug concentration; result = 4800 ± 1100 ng/g
SMILES = COC(=O)c1ccc(NC(=O)CSc2nnnn2-c2ccccc2OC)cc1; test system = octanol/buffer; setting = pH 11, known kinase inactives set; quantity = logP; result = 3.55
SMILES = OC[C@H]1OC(O)[C@H](O)[C@@H](O)[C@@H]1O (some centres unmarked); test system = aqueous solution; setting = 20 mM, with: glucosamine; quantity = osmolality; result = 18 mOsmol/kg
SMILES = O=C(Nc1nc2cccc(-c3ccc(CN4CCS(=O)(=O)CC4)cc3)n2n1)C1CC1; assay = refers to: investigations; test system = human rheumatoid arthritis patients; setting = oral, 30 mg once daily, 4 weeks, regardless of relatedness; quantity = treatment-emergent adverse events; result = 11.8%
SMILES = CNCCOC12CC3(C)CC(C)(CC(Cn4ncc(-c5ccc(N6CCc7cccc(C(=O)Nc8nc9ccccc9s8)c7C6)nc5C(=O)O)c4C)(C3)C1)C2; test system = beagle dog, male, anaesthetised; setting = intravenous bolus, 0.03 mg/kg, 30 min; scale = baseline: baseline; quantity = dP/dt at 50 change; result = 9%
SMILES = O=C1c2ccncc2C(=O)c2c1[nH]c1ccccc21; assay = no effect; test system = rat, normal; setting = intravenous, 1 mg/kg; quantity = RV and pulmonary vascular structure; result = no effect
SMILES = O=C(O)CCC(=O)O.[2H]C([2H])([2H])Oc1cc(C)c2[nH]ccc2c1CN1CC[C@@H](C2CC2)C[C@H]1c1ccc(C(=O)O)cc1; test system = healthy Chinese subjects; setting = 50 mg, single ascending dose; quantity = subjects with any TEAE; result = 33.3%
SMILES = [18F]c1ccc(-c2ccc3c(c2)[nH]c2ccncc23)cn1; assay = ex vivo biodistribution; test system = B6SJL mouse, normal, skin; setting = intravenous, 30 min; quantity = SUV; result = 0.311 ± 0.095
SMILES = COc1ccc2nc(COc3ccc(CC4SC(=O)NC4=O)cc3)n(C)c2c1 (centres unmarked); test system = octanol/buffer; setting = 67 µM, pH 11; quantity = logP; result = 2.86
SMILES = O=C1NCCc2nc(OCc3cccc(F)c3)ccc21; assay = refers to: loss of Escape; test system = Sprague-Dawley rat male; setting = oral, 100 mg/kg, 30 min; scale = direction not given; quantity = Irwin test score; result = 0.4
SMILES = C=CC(=O)NC1CCN(c2ncc3ncnc(Nc4ccc(Oc5ccc6c(c5)ncn6C)c(C)c4)c3n2)CC1; assay = refers to: muscle twitching; test system = human male; setting = oral, dose not given, AEs, treatment-related, on drug, CTCAE; quantity = adverse events incidence; result = 0%
SMILES = Cn1cc([C@H]2C[C@H]3CSC(N)=N[C@@]3(c3ccc(F)cc3F)CO2)cn1; test system = male 129/SVE mouse, brain; setting = subcutaneous, 10 mg/kg, 1 h; quantity = brain concentration; result = 1350 nM
SMILES = Oc1ccc(/C=C/c2cc(O)cc(O)c2)cc1; test system = rat, azoxymethane-injected, blood at sacrifice; setting = 100 mg/kg; quantity = cholinesterase; result = 7 IU/L and 8 IU/L and < 5 IU/L
SMILES = CCOc1c([C@H](C)n2nc(C)c3c(N)ncnc32)cc(Cl)c(F)c1[C@@H]1CNC(=O)C1; test system = patients, monotherapy; setting = oral, 20 mg once daily, cycle 1 day 1; quantity = AUC(0-last); result = 5.99 ± 2.65 µM·h
SMILES = CN1CCCC1CCNS(=O)(=O)c1ccc2c(c1)CN(CC1CCCCC1)CC2 (centres unmarked); test system = THY-Tau22 mouse, plasma; setting = oral in diet, 0.0002% in diet, 6 months, sampled at 8 p.m.; quantity = concentration; result = 0.333 ng/mL

Excerpt of the above:
SMILES = CN1CCCC1CCNS(=O)(=O)c1ccc2c(c1)CN(CC1CCCCC1)CC2 (centres unmarked); test system = THY-Tau22 mouse, plasma; setting = oral in diet, 0.0002% in diet, 6 months, sampled at 8 p.m.; quantity = concentration; result = 0.333 ng/mL
SMILES = N#Cc1ccc2c(c1)[C@H]1CCCN(C(=O)c3ccc4[nH]cnc4c3)[C@H]1C2; test system = human males; setting = 360 mg, day 15; quantity = total testosterone level; result = 14.7 nmol/L
